Results from different studies.
Lines come from different studies, so protocols differ. Several values in a cell are separate wells, animals, samples, runs or records. ± marks the error that the study gave.

For `COc1cc(CNC(=O)C[C@H](C)CCC=C(C)C)ccc1OCc1cn(-c2cccc(Cl)c2)nn1`, the growth percent was 71% (OVCAR-3 ovarian cancer cells; SRB; 10 µM, 48 h).
For `COc1ccc(-c2cc(C(F)(F)F)nc(SCC(=O)N(C)c3ccccc3)n2)cc1`, insulin secretion read “increased” (rat INS-1 832/13 cells; 20 µM, no GLP-1, added: 15 mM glucose; reference: DMSO).
With `CCc1ccc(-c2cn([C@@H]3O[C@H](CO)[C@@H](O)[C@H]3O)c3ncnc(N)c23)cc1` the EC50 was greater than 200 µM (HEK; cytotoxicity).
`COc1ccc(CNc2nc3c(c(=O)[nH]2)[n+](C)cn3C2OC(COP(=O)(O)OP(=O)([O-])OP(=O)(O)OCC3OC(n4cnc5c(=O)[nH]c(N)nc54)C(O)C3O)C(O)C2O)cc1` (stereo not shown): “relative protein expression” 2.18 and 2.2 (HEK293 transfected with capped mRNA; luciferase expression; reference: m7GpppG-capped mRNA).
The growth inhibition of `CCC(=C(c1ccc(Cl)cc1)c1ccc(OCCN2CCOCC2)cc1)c1ccc(Cl)cc1` is reported as 11% (NCI-60 tumour cell lines; 10 µM, mean over cell lines).
The growth percent of `COc1cc(CNC(=O)C[C@H](C)CCC=C(C)C)ccc1OCc1cn(-c2ccc(Br)cc2)nn1` is reported as 65.1% (HOP-62; SRB; 10 µM, 48 h).
For `Cc1cc(/N=N/c2ccc(/N=N/c3ccc(O)c(C(=O)O)c3)cc2)c(N)cc1N`, mRNA level read “decreased” (primary mouse articular chondrocytes; real-time PCR, item: Phlpp1; 25 µM).
With `CCC(=C(c1ccc(Cl)cc1)c1ccc(OCCN2CCCCC2)cc1)c1ccccc1` the growth inhibition was 22.8% (NCI-60 tumour cell lines; 10 µM, mean over cell lines).
`COc1cc(CNC(=O)C[C@H](C)CCC=C(C)C)ccc1O` gave a growth percent of 113% (UACC-257 melanoma cells; SRB; 10 µM, 48 h).
`C=CC(=O)Nc1cc(Nc2nccc(-c3c(-c4cccc(F)c4)n(C)c4ccccc34)n2)c(OC)cc1N(C)CCN(C)C`: wound closure “decreased” (H1975; scratch; concentration not given, 24 h).
`CC(C)=CCc1c(O)cc2c(c1O)C(=O)OC2` has a glucose consumption of 11 ± 0.86 mM (HepG2, palmitic acid-induced insulin resistance; 15 µM, 24 h).
For `COc1cc(Cc2c[nH]c3ncc(C(F)(F)F)cc23)cc(OC)c1`, “Bcl-2 protein level” read “decreased” (4T1; western blot; concentration not given, 24 h).
With `Cc1c(C(=O)NNC(=S)Nc2ccc(Cl)cc2)nnn1Cc1nc2ccccc2[nH]1` the apoptotic cells was 37.4% (HepG2; annexin V/PI; concentration not given, 24 h).
`COc1cc(CNC(=O)C[C@H](C)CCC=C(C)C)ccc1OCc1cn(-c2ccc(C#N)cc2)nn1` has a growth percent of 71.6% (SF-268 CNS cancer cells; SRB; 10 µM, 48 h).
For `Fc1ccc(Nc2nc(NC3CCCCC3)c3ccccc3n2)cc1F`, “salmeterol inhibition of migration” read “increased” (HASM; scratch; 1 µM, added: salmeterol 10 µM).
The growth percent of `COc1cc(CNC(=O)C[C@H](C)CCC=C(C)C)ccc1OCc1cn(-c2cccc([N+](=O)[O-])c2)nn1` is reported as 82.7% (HOP-62; SRB; 10 µM, 48 h).
`O=Cc1c(O)ccc2ccccc12`: “log2 fold change” -2.92 (HUVEC; RNA sequencing, item: GDF3; 75 µM, 24 h; reference: DMSO).
With `COc1cc(CNC(=O)C[C@H](C)CCC=C(C)C)ccc1OCc1cn(-c2ccc(Cl)cc2Cl)nn1` the growth percent was 92% (UACC-257 melanoma cells; SRB; 10 µM, 48 h).
For `COc1ccc([C@@H]2CC(=O)c3c(O)cc(O[C@@H]4O[C@H](CO[C@@H]5O[C@@H](C)[C@H](O)[C@@H](O)[C@H]5O)[C@@H](O)[C@H](O)[C@H]4O)cc3O2)cc1O`, the cell count was 11200 ± 514 (MRC5; trypan blue exclusion; 150 µg/mL, 48 h).
